Measured values collected from several papers.
A part holds a random share of what one study measured. Positions count from the first letter of the parent shown.
UniProt P42679, sequence (whole entry, looked up): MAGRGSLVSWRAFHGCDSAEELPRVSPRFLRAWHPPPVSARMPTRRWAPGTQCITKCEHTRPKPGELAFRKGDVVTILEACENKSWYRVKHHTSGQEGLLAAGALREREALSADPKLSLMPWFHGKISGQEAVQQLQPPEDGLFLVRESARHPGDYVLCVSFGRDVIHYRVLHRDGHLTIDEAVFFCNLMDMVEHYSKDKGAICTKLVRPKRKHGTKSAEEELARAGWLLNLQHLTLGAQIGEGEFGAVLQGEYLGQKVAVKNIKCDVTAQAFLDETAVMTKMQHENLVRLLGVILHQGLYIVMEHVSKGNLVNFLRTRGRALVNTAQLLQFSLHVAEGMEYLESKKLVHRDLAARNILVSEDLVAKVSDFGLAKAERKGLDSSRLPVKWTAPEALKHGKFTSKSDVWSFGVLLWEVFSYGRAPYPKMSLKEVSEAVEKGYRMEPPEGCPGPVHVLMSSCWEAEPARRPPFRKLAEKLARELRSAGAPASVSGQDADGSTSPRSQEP

Series 1 — observed: binding; technique: phage display NGS; form: peptide; baseline: input library
Target: UDP-N-acetylglucosamine--peptide N-acetylglucosaminyltransferase 110 kDa subunit (OGT, Homo sapiens, UniProt O15294)
UniProt O15294, sequence (whole entry, looked up): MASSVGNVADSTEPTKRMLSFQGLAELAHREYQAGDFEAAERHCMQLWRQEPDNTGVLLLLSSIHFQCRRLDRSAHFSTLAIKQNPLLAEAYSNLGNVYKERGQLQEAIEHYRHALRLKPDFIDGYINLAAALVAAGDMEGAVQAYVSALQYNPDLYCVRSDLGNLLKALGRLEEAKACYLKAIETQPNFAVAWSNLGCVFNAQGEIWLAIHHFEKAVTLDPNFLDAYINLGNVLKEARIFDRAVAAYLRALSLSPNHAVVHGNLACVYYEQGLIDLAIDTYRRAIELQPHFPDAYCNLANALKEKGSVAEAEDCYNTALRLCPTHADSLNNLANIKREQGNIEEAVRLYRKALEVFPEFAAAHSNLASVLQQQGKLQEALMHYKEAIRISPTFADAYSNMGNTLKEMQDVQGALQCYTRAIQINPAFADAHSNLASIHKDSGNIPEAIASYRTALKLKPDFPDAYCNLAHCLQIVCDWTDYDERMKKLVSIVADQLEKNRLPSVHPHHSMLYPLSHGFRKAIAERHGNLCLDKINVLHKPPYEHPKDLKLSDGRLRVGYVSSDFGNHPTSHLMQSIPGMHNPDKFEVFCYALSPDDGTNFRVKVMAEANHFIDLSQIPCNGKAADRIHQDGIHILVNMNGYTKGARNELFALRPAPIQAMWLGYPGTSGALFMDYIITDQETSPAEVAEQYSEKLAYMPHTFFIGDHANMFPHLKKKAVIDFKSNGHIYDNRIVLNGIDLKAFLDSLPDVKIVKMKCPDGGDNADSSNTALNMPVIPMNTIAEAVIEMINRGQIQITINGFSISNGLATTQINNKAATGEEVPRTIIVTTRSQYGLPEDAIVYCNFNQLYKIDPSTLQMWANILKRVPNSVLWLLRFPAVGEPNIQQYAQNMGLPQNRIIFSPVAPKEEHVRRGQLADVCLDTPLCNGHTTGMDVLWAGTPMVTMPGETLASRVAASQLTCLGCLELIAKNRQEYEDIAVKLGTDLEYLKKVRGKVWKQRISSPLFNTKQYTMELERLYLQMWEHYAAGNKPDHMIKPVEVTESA
| Molecule | minimum log2 enrichment ratio |
| --- | --- |
| HTYDLTGPSHWFTRI | 1.17 |
| QLHMLRQQHAHSGAT | 2.57 |
| HKTWHPHHMVQTPN | 2.17 |
| SMFYPMYRIDIPEKS | 3.66 |
| HLHQDHISHPFEHEA | 2.52 |
| QMQSPYSPQYQITV | 3.85 |
| HREQHDMTYHMIHSR | 2.19 |
| SHKPHRASMPSALQF | 1.24 |

Series 2 — target: inorganic phosphate, free oxyanion; technique: microfluidic competitive inhibition; sample: in vitro, cell-free expressed; tested at: not given; direction: lower = stronger binding
Setting: derived from inhibition constants, unchanged parent 615000 nM
Starting sequence: PafA, mature enzyme, eGFP fusion (Elizabethkingia meningoseptica, UniProt Q9KJX5); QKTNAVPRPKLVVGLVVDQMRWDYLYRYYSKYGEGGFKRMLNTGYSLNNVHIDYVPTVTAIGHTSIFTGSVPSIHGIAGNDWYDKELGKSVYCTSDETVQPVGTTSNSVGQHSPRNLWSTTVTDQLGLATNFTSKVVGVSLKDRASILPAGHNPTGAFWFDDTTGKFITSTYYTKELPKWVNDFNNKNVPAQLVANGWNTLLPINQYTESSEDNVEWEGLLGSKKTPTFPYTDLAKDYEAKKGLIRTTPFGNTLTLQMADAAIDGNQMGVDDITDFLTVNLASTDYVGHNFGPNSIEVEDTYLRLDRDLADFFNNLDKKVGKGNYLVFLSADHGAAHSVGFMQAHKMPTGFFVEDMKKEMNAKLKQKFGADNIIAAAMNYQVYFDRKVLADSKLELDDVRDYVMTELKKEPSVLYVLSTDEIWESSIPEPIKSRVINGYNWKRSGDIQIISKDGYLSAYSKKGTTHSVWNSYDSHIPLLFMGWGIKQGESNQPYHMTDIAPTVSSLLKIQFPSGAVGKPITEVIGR
| Variant | phosphate dissociation constant [µM] |
| --- | --- |
| R144V | > 133000 |
| G438V | 203 |
| Q510V | 430 |
| G482A | 551 |
| N252G | 658 |
| V13G | 498 |
| D233V | 597 |
| K363V | 695 |

Other studies, line by line
| SMILES | target or system | test | setting | how to read | measurement | value |
| --- | --- | --- | --- | --- | --- | --- |
| CCNC(=O)[C@H]1O[C@@H](n2cnc3c(N)ncnc32)[C@H](O)[C@@H]1O | mouse MPNST tumor cells | high-content nuclear imaging, item: cell number | 10 µM, 12 h, mean of 2 replicates | baseline: plate mean, higher = more cells | nuclei count | 0.678 z-score |
| COC[C@H]1OC(=O)c2coc3c2[C@@]1(C)C1=C(C3=O)[C@@H]2CCC(=O)[C@@]2(C)C[C@H]1OC(C)=O | Megakaryocyte-associated tyrosine-protein kinase (MATK, Homo sapiens, UniProt P42679) | enzyme activity, inhibitor | 0.5 µM | baseline: control | remaining activity | 98.8% |
